# Measurements from different studies.
# Each line is one published result; not all experiments were run side by side. ± marks the error that the study gave.
# WT1: WT1 323-438 (Homo sapiens, UniProt P19544)
# Sequence of UniProt P19544 (whole entry, looked up): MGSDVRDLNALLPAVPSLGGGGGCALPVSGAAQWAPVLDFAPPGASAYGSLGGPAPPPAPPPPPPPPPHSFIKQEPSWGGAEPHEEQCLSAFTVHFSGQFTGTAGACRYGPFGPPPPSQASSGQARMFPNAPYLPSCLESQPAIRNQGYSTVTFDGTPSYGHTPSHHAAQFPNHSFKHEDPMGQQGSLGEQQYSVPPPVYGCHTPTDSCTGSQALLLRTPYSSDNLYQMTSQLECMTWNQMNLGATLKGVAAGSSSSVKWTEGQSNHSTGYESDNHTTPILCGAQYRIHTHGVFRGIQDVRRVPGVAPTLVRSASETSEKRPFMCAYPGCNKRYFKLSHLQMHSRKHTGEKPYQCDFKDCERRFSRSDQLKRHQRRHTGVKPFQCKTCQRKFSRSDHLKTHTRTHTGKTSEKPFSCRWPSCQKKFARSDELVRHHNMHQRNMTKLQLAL
# U2AF2: U2AF2 148-342 (Homo sapiens, UniProt P26368)
# Sequence of UniProt P26368 (whole entry, looked up): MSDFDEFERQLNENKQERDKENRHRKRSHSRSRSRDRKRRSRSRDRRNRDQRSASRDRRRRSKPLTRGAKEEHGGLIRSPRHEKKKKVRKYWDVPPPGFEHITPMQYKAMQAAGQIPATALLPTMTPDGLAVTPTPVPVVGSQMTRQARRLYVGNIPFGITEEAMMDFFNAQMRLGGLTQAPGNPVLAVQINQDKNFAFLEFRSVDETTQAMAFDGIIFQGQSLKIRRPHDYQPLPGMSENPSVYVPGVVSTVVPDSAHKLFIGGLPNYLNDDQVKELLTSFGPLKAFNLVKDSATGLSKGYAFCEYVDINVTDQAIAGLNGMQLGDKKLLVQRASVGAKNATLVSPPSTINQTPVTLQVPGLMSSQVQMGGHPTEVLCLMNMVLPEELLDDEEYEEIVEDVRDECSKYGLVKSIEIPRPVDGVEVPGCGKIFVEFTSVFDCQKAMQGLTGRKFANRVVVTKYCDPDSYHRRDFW
# T1: ihfA/ihfB 1-98; 1-95 (Aggregatibacter actinomycetemcomitans); chain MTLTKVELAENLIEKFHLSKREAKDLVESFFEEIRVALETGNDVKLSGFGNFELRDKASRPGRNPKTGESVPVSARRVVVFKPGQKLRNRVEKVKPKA; chain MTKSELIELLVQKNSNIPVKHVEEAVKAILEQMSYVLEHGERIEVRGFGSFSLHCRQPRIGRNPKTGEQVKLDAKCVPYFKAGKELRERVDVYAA
# Sequence of UniProt P19838 (whole entry, looked up): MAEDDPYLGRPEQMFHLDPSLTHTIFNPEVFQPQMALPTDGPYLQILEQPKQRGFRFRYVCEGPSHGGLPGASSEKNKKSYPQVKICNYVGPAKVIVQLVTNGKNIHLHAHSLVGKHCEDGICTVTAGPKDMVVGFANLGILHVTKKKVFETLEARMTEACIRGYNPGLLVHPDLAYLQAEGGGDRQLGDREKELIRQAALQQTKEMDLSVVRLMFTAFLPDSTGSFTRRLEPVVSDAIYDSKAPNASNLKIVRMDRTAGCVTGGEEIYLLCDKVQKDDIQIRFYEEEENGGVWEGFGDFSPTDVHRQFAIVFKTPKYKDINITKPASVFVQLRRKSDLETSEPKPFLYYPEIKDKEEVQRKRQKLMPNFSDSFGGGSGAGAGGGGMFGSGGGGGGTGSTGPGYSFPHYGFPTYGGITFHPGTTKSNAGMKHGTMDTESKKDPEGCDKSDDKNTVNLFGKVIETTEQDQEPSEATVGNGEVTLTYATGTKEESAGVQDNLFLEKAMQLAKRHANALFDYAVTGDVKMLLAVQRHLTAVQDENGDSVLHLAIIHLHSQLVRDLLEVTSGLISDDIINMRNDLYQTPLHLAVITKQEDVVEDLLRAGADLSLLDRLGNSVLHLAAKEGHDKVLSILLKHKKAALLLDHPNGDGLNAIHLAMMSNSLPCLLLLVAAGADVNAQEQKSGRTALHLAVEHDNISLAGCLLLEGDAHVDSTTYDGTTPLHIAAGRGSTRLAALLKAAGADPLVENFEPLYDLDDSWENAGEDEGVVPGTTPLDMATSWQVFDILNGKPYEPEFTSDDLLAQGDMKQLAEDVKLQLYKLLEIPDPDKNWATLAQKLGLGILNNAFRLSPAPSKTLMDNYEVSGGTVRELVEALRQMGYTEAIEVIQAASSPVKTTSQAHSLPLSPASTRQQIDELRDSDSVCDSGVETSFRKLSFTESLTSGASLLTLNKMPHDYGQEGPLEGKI
# Sequence of UniProt P09874 (whole entry, unmodified, looked up): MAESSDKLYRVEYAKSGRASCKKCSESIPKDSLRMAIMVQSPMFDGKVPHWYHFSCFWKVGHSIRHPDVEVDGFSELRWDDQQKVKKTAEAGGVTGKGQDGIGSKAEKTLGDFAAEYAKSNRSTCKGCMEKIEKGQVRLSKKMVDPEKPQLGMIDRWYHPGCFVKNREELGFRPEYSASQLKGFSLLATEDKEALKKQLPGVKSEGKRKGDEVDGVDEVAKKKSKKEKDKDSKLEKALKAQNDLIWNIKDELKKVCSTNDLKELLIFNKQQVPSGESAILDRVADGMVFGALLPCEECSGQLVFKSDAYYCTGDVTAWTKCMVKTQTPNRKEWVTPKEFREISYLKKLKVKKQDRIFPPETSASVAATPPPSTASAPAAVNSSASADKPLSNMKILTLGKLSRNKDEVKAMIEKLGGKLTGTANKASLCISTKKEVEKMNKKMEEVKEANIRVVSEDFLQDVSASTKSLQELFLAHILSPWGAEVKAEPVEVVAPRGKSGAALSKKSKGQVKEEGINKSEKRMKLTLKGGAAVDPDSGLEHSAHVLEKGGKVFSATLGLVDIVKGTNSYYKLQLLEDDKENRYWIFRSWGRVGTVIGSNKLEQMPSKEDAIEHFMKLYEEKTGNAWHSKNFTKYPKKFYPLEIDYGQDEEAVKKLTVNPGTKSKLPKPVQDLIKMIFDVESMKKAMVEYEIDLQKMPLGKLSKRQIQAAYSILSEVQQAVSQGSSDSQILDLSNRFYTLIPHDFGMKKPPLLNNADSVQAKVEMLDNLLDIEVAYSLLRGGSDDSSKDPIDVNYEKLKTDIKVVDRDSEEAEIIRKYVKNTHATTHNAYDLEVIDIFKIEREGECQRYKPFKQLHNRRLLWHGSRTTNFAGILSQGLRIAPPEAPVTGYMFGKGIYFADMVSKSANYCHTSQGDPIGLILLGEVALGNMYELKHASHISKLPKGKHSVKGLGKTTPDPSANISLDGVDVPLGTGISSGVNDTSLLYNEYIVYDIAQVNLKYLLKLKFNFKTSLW
# Sequence of UniProt Q9SAH7 (whole entry, looked up): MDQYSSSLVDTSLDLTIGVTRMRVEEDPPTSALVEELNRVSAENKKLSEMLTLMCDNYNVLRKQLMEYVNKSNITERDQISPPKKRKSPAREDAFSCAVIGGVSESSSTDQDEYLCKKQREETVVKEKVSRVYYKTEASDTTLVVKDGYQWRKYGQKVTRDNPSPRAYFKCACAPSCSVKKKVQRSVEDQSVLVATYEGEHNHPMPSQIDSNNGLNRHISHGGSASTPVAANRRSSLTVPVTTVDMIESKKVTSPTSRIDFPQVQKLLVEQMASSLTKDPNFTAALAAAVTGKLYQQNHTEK
# Sequence of UniProt Q9LY00 (whole entry, looked up): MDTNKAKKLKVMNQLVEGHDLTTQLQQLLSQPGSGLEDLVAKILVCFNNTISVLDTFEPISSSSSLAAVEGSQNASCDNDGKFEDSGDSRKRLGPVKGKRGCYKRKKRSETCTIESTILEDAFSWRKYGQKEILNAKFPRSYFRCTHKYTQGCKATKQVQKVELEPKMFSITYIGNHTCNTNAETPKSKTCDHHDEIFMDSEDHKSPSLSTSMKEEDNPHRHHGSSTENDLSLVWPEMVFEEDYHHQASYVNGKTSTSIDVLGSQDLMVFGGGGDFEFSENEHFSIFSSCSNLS
# Sequence of UniProt Q7EZT1 (whole entry, looked up): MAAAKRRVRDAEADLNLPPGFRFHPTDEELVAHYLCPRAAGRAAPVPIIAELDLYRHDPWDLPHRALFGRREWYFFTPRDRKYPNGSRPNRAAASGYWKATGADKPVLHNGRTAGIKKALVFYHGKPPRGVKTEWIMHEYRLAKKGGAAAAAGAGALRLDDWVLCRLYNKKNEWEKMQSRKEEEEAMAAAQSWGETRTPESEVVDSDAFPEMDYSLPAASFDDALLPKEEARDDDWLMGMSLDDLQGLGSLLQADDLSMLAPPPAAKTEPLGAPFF
# Sequence of UniProt Q5NB82 (whole entry, looked up): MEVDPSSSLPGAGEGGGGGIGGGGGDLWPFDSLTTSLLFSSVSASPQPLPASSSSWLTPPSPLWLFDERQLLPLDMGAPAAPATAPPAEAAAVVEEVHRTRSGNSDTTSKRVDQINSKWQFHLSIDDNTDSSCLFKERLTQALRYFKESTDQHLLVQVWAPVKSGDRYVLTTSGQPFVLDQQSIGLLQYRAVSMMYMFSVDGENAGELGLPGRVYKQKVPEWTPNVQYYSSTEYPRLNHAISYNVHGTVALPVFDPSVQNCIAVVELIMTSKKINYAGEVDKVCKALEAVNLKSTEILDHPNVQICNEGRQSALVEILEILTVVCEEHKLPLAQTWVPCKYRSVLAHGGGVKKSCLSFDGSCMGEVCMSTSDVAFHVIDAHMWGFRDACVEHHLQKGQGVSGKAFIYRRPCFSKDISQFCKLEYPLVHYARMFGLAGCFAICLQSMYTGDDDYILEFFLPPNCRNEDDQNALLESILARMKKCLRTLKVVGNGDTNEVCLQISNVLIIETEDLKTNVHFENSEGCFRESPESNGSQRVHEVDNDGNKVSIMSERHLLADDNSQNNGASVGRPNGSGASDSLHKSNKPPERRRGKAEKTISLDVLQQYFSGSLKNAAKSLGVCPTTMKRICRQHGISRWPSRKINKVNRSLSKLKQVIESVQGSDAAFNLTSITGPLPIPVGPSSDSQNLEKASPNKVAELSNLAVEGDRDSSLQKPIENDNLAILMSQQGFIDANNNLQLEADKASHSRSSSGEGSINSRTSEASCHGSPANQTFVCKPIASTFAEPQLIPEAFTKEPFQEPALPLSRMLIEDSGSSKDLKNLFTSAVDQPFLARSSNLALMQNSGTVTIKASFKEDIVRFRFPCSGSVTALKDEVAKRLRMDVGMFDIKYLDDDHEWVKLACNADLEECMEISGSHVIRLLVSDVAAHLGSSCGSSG
# Sequence of UniProt P13393 (whole entry, looked up): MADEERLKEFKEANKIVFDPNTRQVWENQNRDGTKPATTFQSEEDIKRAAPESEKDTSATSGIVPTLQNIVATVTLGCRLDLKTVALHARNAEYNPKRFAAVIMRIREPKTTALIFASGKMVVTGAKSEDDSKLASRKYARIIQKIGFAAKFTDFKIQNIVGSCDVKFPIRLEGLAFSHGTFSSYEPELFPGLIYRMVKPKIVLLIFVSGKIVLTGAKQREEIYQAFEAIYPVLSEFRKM
Sequence,target,technique,form,tested at,notes,endpoint,value
CCCCCCUUUCACGUUCACUCUGUCU (ssRNA),"IGF2BP2 1-599 (Homo sapiens, UniProt Q9Y6M1)",fluorescence polarization,RNA,,NaCl 150 mM,binding,binds
TAGTTTCAGAACGTCTCTTGACTGCAAAATCCAGTTTGTCCACAAGTATT (dsDNA),"WRKY23 (Oryza sativa, UniProt Q7E0X1)",EMSA,"double-stranded DNA, one strand shown",,,binding,binds
GGAATTGGTCAGTGCTAATCCTTGGTCAGTGCAGCTA (dsDNA (Caenorhabditis elegans); blunt),"him-8 140-235 (Caenorhabditis elegans, UniProt O18068)","streptavidin pull-down, western blot","double-stranded DNA, one strand shown",1 µM,,binding,no binding
GTTGAATGTCACCTAGCTAGCACGTGACCCGCCTTTTCCCCGCACG (dsDNA),"Protein BZR1 homolog 1-304 (Oryza sativa, UniProt A0A0P0UYT3)",EMSA,"double-stranded DNA, one strand shown",,,binding,binds
TATCGCTTTCTTCTCCCGTGACATCATTGTCGAGGTTTATT (dsDNA),"WRKY70 1-294 (Arabidopsis thaliana, UniProt Q9LY00)",EMSA,"double-stranded DNA, one strand shown",,,binding,binds
TCTTGTATTTTAGTCATGCATGACAATTTTTTC (dsDNA (Drosophila melanogaster); blunt),"sv (Drosophila melanogaster, UniProt Q59DN9)",EMSA,"double-stranded DNA, one strand shown",,,binding,binds
TAAAGTGTCGTTGGCCTTAACAACCAGACTAACATTTTTT (dsDNA),"Transcription factor 1-552 (Triticum aestivum, UniProt G9DR80)",EMSA,"double-stranded DNA, one strand shown",,,binding,binds
GCCCCCACTTACTAACCCCCT (dsDNA),"Auxin response factor 1-610 (Capsicum annuum, UniProt A0A1U8F1G4)",EMSA,"double-stranded DNA, one strand shown",,,binding,no binding
ACCAAGCGTGATGCGGAGCCGCCGCCGCCGCCG (dsDNA; blunt),WT1,EMSA,"double-stranded DNA, one strand shown",,,binding,no binding
TGAACAACTGTCCACTAG (dsDNA),"Auxin response factor 1-610 (Capsicum annuum, UniProt A0A1U8F1G4)",MST,"double-stranded DNA, one strand shown",,,binding,binds
TCCTGAAGAGGCGCCCTAGCTTGGTCCTATCGTCGTCAAGTCAATCGGTCC (dsDNA; 5'-amino-C6 primer),"SPT15 full length assumed (Saccharomyces cerevisiae, UniProt P13393)",array,"double-stranded DNA, one strand shown",,TBP alone,Kd,0.00087 ± 5e-05 µM
UUAUUUUUAAGGAUUUAUUUAUUUA (ssRNA),"APOBEC3G 1-384 (Homo sapiens, UniProt Q9HC16)","UV cross-linking, SDS-PAGE, MS",RNA,,,binding,binds
TCCCTGTCAATCTGATCGACACACACCTCT (dsDNA),"GATA15 full length assumed (Oryza sativa, UniProt Q6L5E5)",EMSA,"double-stranded DNA, one strand shown",,,binding,binds
GATTTTGTCTTGATACTTAAACTTTGGAA (dsDNA),"Uncharacterized protein 1-360 (Prunus persica, UniProt M5W9R3)",EMSA,"double-stranded DNA, one strand shown",,,binding,binds
GGGCCGTCCAGAAGCTTCCAGAACCTTCTTCTCCTCCT (dsDNA),"HSFA4D full length assumed (Oryza sativa, UniProt Q93VB5)",EMSA,"double-stranded DNA, one strand shown",,,binding,binds
CGTTTGTCGCTGTCACGATGTGGACCGTTCTTCTTTATTTTCACGTGGACCGACTTAATTACCTTCTTTCATTCTTGTTATTTCAATATTTTTTACGTCATTTAAACTCCACTTTACCAAAATAATTTATTTCATTCTTTGAGAGCATCAATTATCAAATAATTCAATTGTCTTTTTTCGTGATAGTTGAATAAGGGAC (dsDNA),"WRKY18 full length assumed (Arabidopsis thaliana, UniProt Q9C5T4)",EMSA,"double-stranded DNA, one strand shown",,,binding,binds
CGGTTTTTCCCCTGCGGGTCGTATTGGAAAGCCATTGAAAAGCTGATGGATAACTCTGCGAGTTACCCACGAGCTTTCCA (dsDNA),"T1, ihfA/ihfB 1-98; 1-95 (Aggregatibacter actinomycetemcomitans)",EMSA,"double-stranded DNA, one strand shown",,,binding,binds
GUCUUUCUU (ssRNA),U2AF2,sequencing of bound RNA,RNA,,motif only,Kd,1.56 µM
TTTACAATTGAAAGTTCATGTATCTTCCTAATAAAAAGAACA (dsDNA),"NOR full length assumed (Solanum lycopersicum, UniProt A0A3Q7J5X6)",EMSA,"double-stranded DNA, one strand shown",,,binding,binds
"DNA 1 ATACCAGCTTATTCAATT / DNA 2 ATTGCTCCTCAGCAATTGAATAAGCT (dsDNA; 13 bp duplex, 5' overhangs, 5'-NH2)","AFP 19-609 (Homo sapiens, UniProt P02771)",magnetic bead strand displacement,double-stranded DNA,,,binding,no binding
"GGGTTGCGGCCGCTTGGG (dsDNA; blunt, 5'-phosphate)","PARP1 full length assumed W318R (Homo sapiens, UniProt P09874)",stopped-flow fluorescence anisotropy,"double-stranded DNA, one strand shown",,,binding,binds
GCAGCCCTGGTTAAAAACAAGGTTTATAAATATTGGTTTAAAAGCAGGTTAAAAGACAGGTTAGCGGTGG (ssDNA),"trfA 98-382 G254D/S267L/R156E (Escherichia coli, UniProt P07676)",SPR,single-stranded DNA,,,binding,no binding
ACCAAGCGGGATGCTGAGCCGCCGCCGCCGCCG (dsDNA; blunt),WT1,EMSA,"double-stranded DNA, one strand shown",,,binding,no binding
TTTTTT (ssDNA),"CP29A 97-176 (Arabidopsis thaliana, UniProt Q43349)",NMR titration,single-stranded DNA,,,binding,binds
CTGTTTTATTCACTTGATCTTCTTAATCTTTTAAATTGCCTATCTTTTGCTATGTTTTTGTTACAATTTAAATTGACAAGTACTTAGAAAAACAAACAAAAATGATATCTCTGTTCCATCTTAGATTATTCGTTTCTTATTTCTCTTAATATATATTTTTGAACACGCTTATTTCTCTTATATATGTTGCAATATTC (dsDNA),"WRKY40 full length assumed (Arabidopsis thaliana, UniProt Q9SAH7)",EMSA,"double-stranded DNA, one strand shown",,,binding,binds
ACCAAGCTGGATGCGGAGCCGCCGCCGCCGCCG (dsDNA; blunt),WT1,EMSA,"double-stranded DNA, one strand shown",,,binding,no binding
AAACTTCCGTGGAAAACC (dsDNA),"PDR1 1-207 (Saccharomyces cerevisiae, UniProt P12383)",competition,"double-stranded DNA, one strand shown",,,binding,binds
TTTTTTTTTTTTTTTTTTTT (ssDNA),"priA full length assumed (Escherichia coli, UniProt P17888)",UV photo-cross-linking,single-stranded DNA,,no nucleotide,binding,binds
AGCAGCACAGAGGTCAGATGCAAACCACAGCCTGAGTGGTTAGCGTATGTCATTTACGGACCTATGCGTGCTACCGTGAA (ssDNA; 5' amino C6),NPY fragment (Homo sapiens),electrochemical impedance spectroscopy,single-stranded DNA,10-1000 ng/mL,aptamer electrode,binding,binds
CUGUUCAUU (ssRNA),U2AF2,sequencing of bound RNA,RNA,,motif only,Kd,9.98 µM
TGGTATTTTGACGTGTGGGCATCACAGGTGCACGTGAAAACCCATTTT (dsDNA),"NAC067 1-276 (Oryza sativa, UniProt Q7EZT1)",EMSA,"double-stranded DNA, one strand shown",,,binding,binds
GCAGCUCGGGGAUCAUGGCCCACUGAACCCCCAAGCGC (structured RNA),"NFKB1 41-365 (Homo sapiens, UniProt P19838)",EMSA,folded RNA,,,binding,binds
CATCTCTTACTTTCTATAGGTGTCATAC (dsDNA),"NLP3 full length assumed (Oryza sativa, UniProt Q5NB82)",EMSA,"double-stranded DNA, one strand shown",,,binding,binds
TCAAGCTTGGACATGAGCAGTGTCGGTTATGGCCAACGTTCAGTAC (dsDNA),"Auxin response factor 1-896 (Populus tomentosa, UniProt A0A8X8DKC4)",EMSA,"double-stranded DNA, one strand shown",,,binding,binds
CCAATGTGTAACAAGTAACTTATGACAACACAAATTTCTTCTTTGGTAGAAAACAAACGGGTAAGTAAAAAGAAAAGAAAAAAAGAAGTGAGTGAGAAGAGAGTGTAAGTATAAATAAAAGAAGCACCGCCCTAATCGACCATTCACAACGATGACATTCAAACACTCTTCAG (dsDNA),"WRKY60 full length assumed (Arabidopsis thaliana, UniProt Q9SK33)",EMSA,"double-stranded DNA, one strand shown",,,binding,binds
AATTGTACATGCATATAAAGAACCCAAACATGGTAACA (dsDNA),"TaB3 1-272 (Triticum aestivum, UniProt A0A3B6ITW4)",EMSA,"double-stranded DNA, one strand shown",,,binding,binds
GAGCTGCAAGTGGATATTTGGACCTCTTTGAGGTCTTCGTTGGAAACGGGATTTCCTCATATAATGTTACACAGAAGAATTCTCAGTAACTTATTTGTGGTGTGTGTATTCAACTCACAGAGGTGAACCTTCCTTCAGAAAGAGCAGATTTGAAACACTCTTTTTGTACCC (dsDNA),CENP-I/CENP-H/CENP-K 57-281 / 1-247 / 1-269 (Homo sapiens),EMSA,"double-stranded DNA, one strand shown",,,binding,binds
ATCTGGGAATTCCCAGAT (dsDNA; blunt/self-complementary palindrome),"NFKB1 41-249 (Homo sapiens, UniProt P19838)",NMR,"double-stranded DNA, one strand shown",,,binding,binds
GACGATGTTGACTGGCTTCC (dsDNA (Saccharum)),"WRKY2 full length assumed (Saccharum hybrid, UniProt A0A5J6RV71)",EMSA,"double-stranded DNA, one strand shown",,,binding,binds
"GCTGGCTTCGTAAGAAGCCAGCTCGCGGTCAGCTTGCTGACCGCG (DNA; dumbbell hairpin, nicked, 5'-phosphate)","PARP1 1-1014 (Homo sapiens, UniProt P09874)",fluorescence microscopy,folded DNA,,condensation,binding,binds

# Some of these lines once more:
Sequence,target,technique,form,tested at,notes,endpoint,value
CGGTTTTTCCCCTGCGGGTCGTATTGGAAAGCCATTGAAAAGCTGATGGATAACTCTGCGAGTTACCCACGAGCTTTCCA (dsDNA),"T1, ihfA/ihfB 1-98; 1-95 (Aggregatibacter actinomycetemcomitans)",EMSA,"double-stranded DNA, one strand shown",,,binding,binds
AGCAGCACAGAGGTCAGATGCAAACCACAGCCTGAGTGGTTAGCGTATGTCATTTACGGACCTATGCGTGCTACCGTGAA (ssDNA; 5' amino C6),NPY fragment (Homo sapiens),electrochemical impedance spectroscopy,single-stranded DNA,10-1000 ng/mL,aptamer electrode,binding,binds
TGGTATTTTGACGTGTGGGCATCACAGGTGCACGTGAAAACCCATTTT (dsDNA),"NAC067 1-276 (Oryza sativa, UniProt Q7EZT1)",EMSA,"double-stranded DNA, one strand shown",,,binding,binds
